Measurements pooled from the literature.
± marks the error that the study gave.

| Compound | test | system | conditions | how to read | quantity | value |
| --- | --- | --- | --- | --- | --- | --- |
| C=CC(=O)N1CC[C@H](n2nc(C#Cc3cc(OC)cc(OC)c3)c3c(N)ncnc32)C1 |  | patients with advanced solid tumours | oral, dose not given, Stomatitis, any grade, QD, together with: ferric citrate hydrate |  | adverse drug reaction incidence | 0% |
| CCN1[C@@H](C(=O)NC23CCC(C(=O)O)(CC2)CC3)[C@H](c2cccc(Cl)c2F)[C@]2(C(=O)Nc3cc(Cl)ccc32)C12CCCCC2 |  | patients with advanced solid tumours | oral, 100 mg |  | Anemia incidence | 45.5% |
| CCN(CCO)CCCC(C)Nc1ccnc2cc(Cl)ccc12 (stereo not shown) |  | newly diagnosed glioblastoma patients | oral, 800 mg/dose, grade 4, together with: radiotherapy and temozolomide |  | neutrophil decrease patients | 66% |
| CN1CCN(S(=O)(=O)c2cc([N+](=O)[O-])ccc2N(CCOS(C)(=O)=O)CCOS(C)(=O)=O)CC1 |  | NSG mice female, plasma | intraperitoneal, 10 mg/kg, 0.25 h |  | concentration | 5060 nM |
| CN(C(=O)n1cnc(-c2ccc[n+]([O-])c2)c1)C1CCCCC1 |  | Wistar rat, cerebral cortex | oral, 10 mg/kg/day, 4 h, repeated 5 days |  | concentration | 73.9 ± 29.9 ng/g |
| CC(C)C[C@@H]1NC(=O)CNC(=O)[C@H](CC(N)=O)NC(=O)[C@H](CCCCN)NC(=O)[C@H]([C@@H](C)O)NC(=O)[C@@H]2CSSC[C@@H]3NC(=O)[C@H]([C@@H](C)O)NC(=O)CNC(=O)CNC(=O)[C@H](C(C)C)NC(=O)[C@@H]4CSSC[C@H](NC(=O)[C@H]([C@@H](C)O)NC(=O)[C@H](CSSC[C@H](NC(=O)[C@H](C(C)C)NC(=O)[C@@H]5CCCN5C1=O)C(=O)NCC(=O)N[C@@H](CCC(=O)O)C(=O)N[C@@H]([C@@H](C)O)C(=O)N4)NC(=O)CNC(=O)[C@@H]1CCCN1C(=O)[C@H]([C@@H](C)O)NC(=O)[C@H](CC(N)=O)NC3=O)C(=O)N[C@@H](CO)C(=O)N[C@@H](Cc1c[nH]c3ccccc13)C(=O)N1CCC[C@H]1C(=O)N[C@@H](C(C)C)C(=O)N2 | HPLC | ammonium bicarbonate | 180 µM, 14 days, pH 9.0, 25 °C, deamidation stability |  | remaining peptide | 91.3 ± 0.5% |
| COc1cccc2c1CCCC2CCCN1CCN(C2CCCCC2)CC1 (stereo not shown) |  | CD-1 mouse, male, lung | intraperitoneal, 30 mg/kg |  | elimination rate constant | 6.22e-05 s⁻¹ |
| COc1cc2c(Oc3ccc4[nH]c(C)cc4c3F)ccnc2cc1OCC1(N)CC1 |  | paediatric recurrent refractory sarcoma | 8 mg |  | grade 1 or 2 Triglyceride elevation | 0% |
| CN1CCN(c2ccc(Nc3nccc(-c4ccnc(Cl)c4)n3)cc2C(F)(F)F)CC1 |  | zebrafish embryos | 25 µM, 5 d |  | toxicity | 11 ± 17% |
| COc1cc(C2C3=C(COC3=O)N(CCO)c3cc4c(cc32)CCC4)cc(OC)c1OC (stereo not shown) |  | female Sprague-Dawley rats | intraperitoneal, 400 mg/kg, 72 h, single dose, mean |  | body weight | 217 g |
| CC(C)c1nc(N(C)S(C)(=O)=O)nc(-c2ccc(F)cc2)c1/C=C/[C@@H](O)C[C@@H](O)CC(=O)O |  | healthy human subjects | oral, dose not given, study CL-0537 safety set |  | incidence of Myalgia | 0% |
| CC(C)C[C@@H]1NC(=O)CNC(=O)[C@H](CC(N)=O)NC(=O)[C@H](CCCNC(=N)N)NC(=O)[C@H]([C@@H](C)O)NC(=O)[C@@H]2CSSC[C@@H]3NC(=O)[C@H]([C@@H](C)O)NC(=O)CNC(=O)CNC(=O)[C@H](C(C)C)NC(=O)[C@@H]4CSSC[C@H](NC(=O)[C@H]([C@@H](C)O)NC(=O)[C@H](CSSC[C@H](NC(=O)[C@H](C(C)C)NC(=O)[C@@H]5CCCN5C1=O)C(=O)NCC(=O)N[C@@H](CCC(=O)O)C(=O)N[C@@H]([C@@H](C)O)C(=O)N4)NC(=O)CNC(=O)[C@@H]1CCCN1C(=O)[C@H]([C@@H](C)O)NC(=O)[C@H](CC(N)=O)NC3=O)C(=O)N[C@@H](CCCCN)C(=O)N[C@@H](Cc1c[nH]c3ccccc13)C(=O)N1CCC[C@H]1C(=O)N[C@@H](C(C)C)C(=O)N2 | HPLC | ammonium bicarbonate 0.1 M | 180 µM, 14 days, pH 9.0, 37 °C, deamidation stability |  | remaining peptide | 31.9 ± 3.2% |
| O=S(=O)(Nc1ccccc1)c1ccc(NC(=S)Nc2ccccc2)cc1 | measured: TBIL | female mouse, blood | oral, 20 mg/kg daily, 14 days |  | blood chemistry level | 0.8 mg/dL |
| c1ccc2c(c1)-c1ccc3ccc4cccc5cc-2c1c3c45 |  | polyethylene-water partitioning | PAH compilation | baseline: maximum over minimum K | literature range factor | 66 |
| Cc1ccccc1C(=O)NN=Cc1ccc(O)c(Br)c1 |  | C3H/HeN mouse IN model, plasma | intravenous, 0.8 mg/kg |  | AUC(0-t) | 127 ng·h/mL |
| CC(C)C[C@H](NC(=O)[C@H](CCCCN)NC(=O)OCC1c2ccccc2-c2ccccc21)C(=O)N[C@H](C(=O)N[C@@H](Cc1ccccc1)C(=O)N[C@@H](Cc1ccccc1)C(=O)N[C@@H](CCCCN)C(=O)NCC(=O)N[C@@H](Cc1ccccc1)C(=O)N[C@@H](C)C(=O)N[C@@H](Cc1c[nH]c2ccccc12)C(=O)N[C@@H](CC(N)=O)C(=O)N[C@H](C(=O)N[C@H]1CSSC[C@@H](C(=O)N[C@@H](Cc2c[nH]cn2)C(=O)N[C@@H](CCCNC(=N)N)C(=O)N[C@@H](CCCNC(=N)N)C(=O)N[C@@H](C)C(=O)N[C@@H](CC(N)=O)C(N)=O)NC(=O)[C@H](C(C)C)NC(=O)[C@H](CCCNC(=N)N)NC(=O)[C@H](C(C)C)NC(=O)CNC(=O)[C@H](CC(N)=O)NC(=O)[C@H](CCCNC(=N)N)NC(=O)[C@H](Cc2ccc(O)cc2)NC(=O)[C@H](C(C)C)NC1=O)C(C)C)C(C)C | circular dichroism, measured: antiparallel β-sheet | PBS | 80 µM, pH 7.4, together with: LPS 1 µM |  | secondary structure content | 44.5% |
| c1ccc2c(c1)ccc1c3ccccc3ccc21 |  | fresh water | 12 (unit not given), 20 °C, S30-1 sampler, 30 µm |  | log K(PDMS-water) | 4.72 ± 0.05 |
| CCCSc1ccc2nc(NC(=O)OC)[nH]c2c1 |  | mouse, blood | oral, 50 mg/kg, tolerability, mean |  | lymphocytes | 79.9% |
| O=C1Nc2cc3[nH]nc(-c4ccncc4)c3cc2CN1Cc1ccccc1 | measured: increased AST | patients with advanced solid tumours | intravenous, dose not given, schedules 1 and 2 |  | patients with grade ≥3 TEAE | 9% |

| Compound | test | system | conditions | how to read | quantity | value |
| --- | --- | --- | --- | --- | --- | --- |
| C=CCNc1c(O)cc2c(O)c1C[C@@H](C)C[C@H](OC)[C@H](O)[C@@H](C)/C=C(\C)[C@H](OC(N)=O)[C@@H](OC)/C=C\C=C(/C)C(=O)N2 |  | unresectable or metastatic STS, GIST, other | intravenous, 300 mg/m^2 |  | patients with back pain TEAE | 0% |
| Clc1ccc(-c2cc(Cl)c(Cl)c(Cl)c2)cc1Cl |  | fresh water | 20 °C, S100 sampler, 100 µm |  | log K(PDMS-water) | 5.97 ± 0.04 |
| CC(C)C[C@H](NC(=O)[C@H](Cc1ccccc1)NC(=O)[C@H](Cc1ccccc1)NC(=O)Cc1ccc(-c2ccccc2)cc1)C(=O)N[C@@H](CCCCN)C(=O)N[C@@H](CCCNC(=N)N)C(=O)N[C@H](C(=O)N[C@@H](Cc1c[nH]c2ccccc12)C(=O)N[C@@H](CCCCN)C(=O)N[C@@H](CCCNC(=N)N)C(=O)O)C(C)C |  | mouse liver microsomes |  |  | hepatic clearance | 84.4 mL/min/kg |
| CN1CC[C@@H](c2c(O)cc(O)c3c(=O)cc(-c4ccc(C(F)(F)F)cc4Cl)oc23)[C@@H]1CO | measured: Nausea | relapsed or refractory haematological malignancies | oral, dose not given, all grades |  | adverse event incidence | 25% |
| CC(C)CC(=O)OC[C@H]1O[C@@](C#N)(c2ccc3c(N)ncnn23)[C@H](O)[C@@H]1O | plasma protein binding | mouse plasma | 90 µM |  | unbound fraction | 0.193 |
| COc1ncccc1-c1cnn2ccc(N3CCN(C(=O)OC(C)C)CC3)nc12 |  | rat, thermal hyperalgesia model, plasma | oral, 3 mg/kg, 180 min |  | drug concentration | 290 nM |
| Clc1cc(Cl)cc(-c2cc(Cl)ccc2Cl)c1 |  | fresh water | 20 °C, S100 sampler, 100 µm |  | log K(PDMS-water) | 5.69 ± 0.04 |
| COc1ccc(-c2c(-c3ccc(C#N)c(F)c3)nc(N3CCC(N)CC3)n(C)c2=O)cc1F | measured: Constipation | human patients | oral, 60 mg, dose expansion |  | serious adverse event incidence | 0% |
| O=C(Nc1ccccc1)C1CCN(C(=O)Oc2cccnc2)CC1 | psychotropic effects VAS | healthy women | 20 mg | baseline: pre-dose baseline, direction not given | change in Anxious score | -0.3 |
| CC/C(=C(\c1ccccc1)c1ccc(OCCN(C)C)cc1)c1ccccc1 |  | CD-1 mouse, male, lung | intraperitoneal, 1 mg/kg |  | elimination rate constant | 3.32e-05 s⁻¹ |
| C=CC(=O)Nc1cc(Nc2nccc(Nc3cc(Cl)c(F)cc3C(C)(C)O)n2)c(OC)cc1N1CC[C@@H](N(C)C)C1 |  | human patients | oral, 100 mg, treatment-emergent adverse events |  | patients with nausea | 33.3% |
| COc1ccc(C[C@@H]2NC(=O)[C@H]([C@@H](C)O)NC(=O)[C@@H]3[C@@H]4CCN3C(=O)[C@@H]3Cc5cn(c6ccc(F)cc56)CCCCCCN(Cc5ccc(cc5)CCNC(=O)[C@]5(C)CCCN5C2=O)C(=O)CCC(=O)N[C@@H](C)C(=O)N[C@H](CNC(=O)CCCCC[N+](C)(C)C)C(=O)N[C@@H](Cc2cccc(c2)CNC(=O)CO4)C(=O)N3)cc1 | measured: tooth abscess | human | dose not given |  | participants with adverse event | 2% |
| Cc1cn([C@H]2O[C@@H](CO[P@@](=O)(N[C@@H](C)C(=O)OC(C)C)Oc3ccccc3)[C@H](O)[C@H]2F)c(=O)[nH]c1=O | measured: Fatigue | human | 10 mg |  | patients with TEAE | 0% |
| N=C(N)NCCNC(=O)C1(Nc2ccccc2)CCN(Cc2ccccc2)CC1 |  | Sprague-Dawley rat, male, urine | intravenous, 2.5 mg/kg, time not given |  | unchanged urinary recovery | 17.3 ± 8.3% |
| CO[C@H]1C[C@@H]2CC[C@@H](C)[C@@](O)(O2)C(=O)C(=O)N2CCCC[C@H]2C(=O)O[C@H]([C@H](C)C[C@@H]2CC[C@@H](OC(=O)NCCOCCOCCOCCOCCOCCOCCOCCOCCC(=O)N3CCc4cc(Cn5nc(-c6ccc7oc(N)nc7c6)c6c(N)ncnc65)ccc4C3)[C@H](OC)C2)C[C@@H](O)[C@H](C)/C=C(\C)[C@@H](O)[C@@H](OC)C(=O)[C@H](C)C[C@H](C)/C=C/C=C/C=C/1C | phase 1 dose escalation | advanced solid tumour patients | intravenous, 16 mg weekly, any grade |  | any TRAE incidence | 75% |
| C[C@]1(CO)Cc2ncn(-c3ccc(C#N)c(Cl)c3)c2C(=O)O1 |  | human, Chinese | 3 mg single dose |  | subjects with drug-related acne | 0% |
| CC(=O)c1c(C)c2cnc(Nc3ccc(C4CCN(CCS(C)(=O)=O)CC4)cn3)nc2n(C2CCCC2)c1=O |  | HR+/HER2- advanced breast cancer patients | oral, 50 mg |  | patients with any TEAE | 100% |
| CCc1ccc(CC/C=C/c2ccc3c(c2)C(=O)CC3)cc1 |  | Sprague-Dawley rat, male, serum | oral, 120 mg/kg/day, 14 days |  | chloride | 104 mM |
